Published values collected from several papers.
Numbered parts are unrelated; each lists some results of a single study.
Chain of UniProt P51955 (whole entry, looked up): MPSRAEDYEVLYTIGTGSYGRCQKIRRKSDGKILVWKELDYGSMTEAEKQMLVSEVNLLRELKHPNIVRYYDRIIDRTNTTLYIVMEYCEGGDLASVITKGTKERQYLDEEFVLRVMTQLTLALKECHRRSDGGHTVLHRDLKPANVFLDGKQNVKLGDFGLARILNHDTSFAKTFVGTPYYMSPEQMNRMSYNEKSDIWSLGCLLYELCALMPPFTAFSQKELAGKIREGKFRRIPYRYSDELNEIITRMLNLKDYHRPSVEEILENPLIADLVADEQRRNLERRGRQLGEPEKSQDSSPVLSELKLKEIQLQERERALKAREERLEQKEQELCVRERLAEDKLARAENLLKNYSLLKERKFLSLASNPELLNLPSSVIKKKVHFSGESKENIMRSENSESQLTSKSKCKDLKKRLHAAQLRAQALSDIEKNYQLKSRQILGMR
Chain of UniProt P54760 (whole entry, looked up): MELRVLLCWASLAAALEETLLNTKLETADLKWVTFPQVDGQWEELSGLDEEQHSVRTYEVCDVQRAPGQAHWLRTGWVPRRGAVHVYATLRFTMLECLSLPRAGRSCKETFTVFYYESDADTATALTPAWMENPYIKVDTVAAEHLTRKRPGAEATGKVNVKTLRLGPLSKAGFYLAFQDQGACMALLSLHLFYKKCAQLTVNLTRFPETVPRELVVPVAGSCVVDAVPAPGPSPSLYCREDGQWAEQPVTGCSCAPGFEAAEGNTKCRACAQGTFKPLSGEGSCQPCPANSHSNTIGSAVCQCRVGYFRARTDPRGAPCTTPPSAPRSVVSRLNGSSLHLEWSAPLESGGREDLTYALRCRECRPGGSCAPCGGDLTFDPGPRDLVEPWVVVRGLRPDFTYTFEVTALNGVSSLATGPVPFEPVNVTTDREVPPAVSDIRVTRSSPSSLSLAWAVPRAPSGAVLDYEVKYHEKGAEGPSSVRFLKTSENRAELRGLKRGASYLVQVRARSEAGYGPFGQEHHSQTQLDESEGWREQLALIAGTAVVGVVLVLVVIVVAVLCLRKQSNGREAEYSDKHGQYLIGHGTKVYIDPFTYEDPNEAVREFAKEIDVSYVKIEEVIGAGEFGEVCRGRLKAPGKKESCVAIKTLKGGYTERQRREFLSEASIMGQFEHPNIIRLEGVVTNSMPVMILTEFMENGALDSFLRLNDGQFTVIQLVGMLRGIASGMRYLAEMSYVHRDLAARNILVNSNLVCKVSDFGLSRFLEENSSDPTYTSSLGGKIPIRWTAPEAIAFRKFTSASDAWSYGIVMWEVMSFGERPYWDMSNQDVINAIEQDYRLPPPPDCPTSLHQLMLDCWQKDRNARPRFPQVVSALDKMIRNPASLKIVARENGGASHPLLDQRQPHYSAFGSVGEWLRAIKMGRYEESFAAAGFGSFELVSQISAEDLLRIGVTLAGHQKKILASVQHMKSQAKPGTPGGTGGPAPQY
Chain of UniProt O14920 (whole entry, looked up): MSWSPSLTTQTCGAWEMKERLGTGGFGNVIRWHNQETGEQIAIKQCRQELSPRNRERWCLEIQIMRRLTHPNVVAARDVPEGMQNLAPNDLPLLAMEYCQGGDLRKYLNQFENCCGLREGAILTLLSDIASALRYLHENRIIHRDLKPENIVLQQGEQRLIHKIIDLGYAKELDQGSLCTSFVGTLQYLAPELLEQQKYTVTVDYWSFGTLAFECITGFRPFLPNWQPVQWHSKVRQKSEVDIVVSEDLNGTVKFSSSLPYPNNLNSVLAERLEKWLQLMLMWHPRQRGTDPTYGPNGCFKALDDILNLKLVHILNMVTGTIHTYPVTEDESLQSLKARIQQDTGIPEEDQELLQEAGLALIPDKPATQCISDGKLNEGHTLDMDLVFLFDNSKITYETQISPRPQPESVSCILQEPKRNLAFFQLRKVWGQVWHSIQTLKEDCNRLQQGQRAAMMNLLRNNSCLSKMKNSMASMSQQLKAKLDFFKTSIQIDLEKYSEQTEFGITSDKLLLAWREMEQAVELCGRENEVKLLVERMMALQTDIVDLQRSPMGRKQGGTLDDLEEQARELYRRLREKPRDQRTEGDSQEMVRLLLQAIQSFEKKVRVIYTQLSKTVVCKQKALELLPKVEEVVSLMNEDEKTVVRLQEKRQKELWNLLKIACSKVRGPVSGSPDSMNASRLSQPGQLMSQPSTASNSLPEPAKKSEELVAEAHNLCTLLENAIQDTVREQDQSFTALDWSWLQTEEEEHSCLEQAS
Chain of UniProt P07948 (whole entry, looked up): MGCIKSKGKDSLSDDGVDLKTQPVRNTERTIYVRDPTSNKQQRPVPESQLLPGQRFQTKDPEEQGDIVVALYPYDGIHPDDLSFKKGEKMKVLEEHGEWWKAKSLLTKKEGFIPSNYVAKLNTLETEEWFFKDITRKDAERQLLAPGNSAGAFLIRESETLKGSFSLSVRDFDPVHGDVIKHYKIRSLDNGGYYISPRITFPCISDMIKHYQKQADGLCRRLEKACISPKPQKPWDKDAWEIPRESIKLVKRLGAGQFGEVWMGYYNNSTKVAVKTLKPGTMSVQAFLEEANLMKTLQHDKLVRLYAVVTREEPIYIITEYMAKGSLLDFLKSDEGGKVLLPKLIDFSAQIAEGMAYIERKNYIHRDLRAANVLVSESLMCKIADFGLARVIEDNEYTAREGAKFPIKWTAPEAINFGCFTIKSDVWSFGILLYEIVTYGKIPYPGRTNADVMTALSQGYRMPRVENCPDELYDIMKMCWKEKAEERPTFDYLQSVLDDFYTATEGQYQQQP
Chain of UniProt Q04759 (whole entry, looked up): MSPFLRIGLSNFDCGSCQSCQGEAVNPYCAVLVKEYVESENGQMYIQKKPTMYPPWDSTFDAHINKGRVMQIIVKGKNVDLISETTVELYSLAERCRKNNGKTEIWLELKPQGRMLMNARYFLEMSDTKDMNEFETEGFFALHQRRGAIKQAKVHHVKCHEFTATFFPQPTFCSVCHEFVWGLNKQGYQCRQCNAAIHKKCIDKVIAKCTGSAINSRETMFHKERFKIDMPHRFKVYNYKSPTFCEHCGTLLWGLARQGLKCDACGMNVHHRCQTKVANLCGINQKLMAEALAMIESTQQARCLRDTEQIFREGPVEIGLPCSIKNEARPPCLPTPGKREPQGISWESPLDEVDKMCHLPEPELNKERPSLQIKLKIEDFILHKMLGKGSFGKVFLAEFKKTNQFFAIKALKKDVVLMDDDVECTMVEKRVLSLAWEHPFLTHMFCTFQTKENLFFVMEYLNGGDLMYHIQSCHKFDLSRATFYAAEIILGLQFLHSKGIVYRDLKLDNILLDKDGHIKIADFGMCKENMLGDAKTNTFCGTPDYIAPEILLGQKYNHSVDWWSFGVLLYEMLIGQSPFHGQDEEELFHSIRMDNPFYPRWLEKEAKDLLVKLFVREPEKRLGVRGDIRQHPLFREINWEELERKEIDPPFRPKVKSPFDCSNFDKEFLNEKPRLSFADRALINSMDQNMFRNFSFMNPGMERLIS
Chain of UniProt Q96PN8 (whole entry, looked up): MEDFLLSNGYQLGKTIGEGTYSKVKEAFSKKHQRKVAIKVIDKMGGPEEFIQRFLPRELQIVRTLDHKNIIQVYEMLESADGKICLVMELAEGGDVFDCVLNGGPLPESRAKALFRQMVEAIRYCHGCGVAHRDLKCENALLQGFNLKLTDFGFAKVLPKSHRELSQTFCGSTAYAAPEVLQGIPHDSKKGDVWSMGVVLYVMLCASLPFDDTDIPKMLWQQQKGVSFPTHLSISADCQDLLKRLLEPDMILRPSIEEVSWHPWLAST

Block 1 — observed: enzyme activity; action: inhibitor; concentration: 0.5 µM; reference: control; endpoint: remaining activity
SMILES: COc1ccc(S(=O)(=O)N(CCO)c2ccccc2CN(C)CC=Cc2ccc(Cl)cc2)cc1
target = Tyrosine-protein kinase Lyn, isoform B (LYN, Homo sapiens, UniProt P07948); value = 92.3%
target = Protein kinase C beta type, isoform beta-I (PRKCB, Homo sapiens, UniProt P05771); value = 97.7%
target = Serine/threonine-protein kinase Nek2 (NEK2, Homo sapiens, UniProt P51955); value = 86.6%
target = Calcium/calmodulin-dependent protein kinase type II subunit delta (CAMK2D, Homo sapiens, UniProt Q13557); value = 91.8%
target = STE20/SPS1-related proline-alanine-rich protein kinase (STK39, Homo sapiens, UniProt Q9UEW8); value = 92.8%
target = Inhibitor of nuclear factor kappa-B kinase subunit epsilon (IKBKE, Homo sapiens, UniProt Q14164); value = 93.7%
target = TGF-beta receptor type-2 (TGFBR2, Homo sapiens, UniProt P37173); value = 97.2%
target = Serine/threonine-protein kinase Chk2 (CHEK2, Homo sapiens, UniProt O96017); value = 101%
target = Inhibitor of nuclear factor kappa-B kinase subunit beta (IKBKB, Homo sapiens, UniProt O14920); value = 98.1%

Block 2 — technique: protein-binding microarray; molecule type: double-stranded DNA, one strand shown; sample: in vitro; concentration: 0.8 µM; setting: whole 60-bp probe, no competitor; reading: higher = stronger binding; endpoint: fluorescence intensity
Target: Centromere-binding protein 1, full length, N-terminal tag (CBF1, Saccharomyces cerevisiae, UniProt P17106, residues 1-351)
Chain of UniProt P17106 (whole entry, looked up): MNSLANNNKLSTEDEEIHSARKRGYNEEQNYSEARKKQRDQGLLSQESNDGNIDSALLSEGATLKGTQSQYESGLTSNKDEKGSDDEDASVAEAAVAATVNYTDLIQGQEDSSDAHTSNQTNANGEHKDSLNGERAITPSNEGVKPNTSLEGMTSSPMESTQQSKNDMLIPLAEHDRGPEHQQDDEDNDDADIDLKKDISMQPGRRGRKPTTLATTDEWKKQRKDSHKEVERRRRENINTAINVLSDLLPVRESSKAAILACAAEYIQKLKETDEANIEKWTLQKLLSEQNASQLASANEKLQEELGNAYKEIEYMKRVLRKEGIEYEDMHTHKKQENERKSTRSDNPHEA
Strand = CTAACAATGAATACATGTGATATAGATACTTAATTCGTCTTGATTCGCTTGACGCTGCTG; value = 1580 a.u.
Strand = GAACCGCGGTCGTGCTGCGTGATCAGCTACATGTAGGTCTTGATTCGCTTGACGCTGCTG; value = 1090 a.u.
Strand = GAAACTATGCAATGTCACACGCCCCTTTTCCGGTAGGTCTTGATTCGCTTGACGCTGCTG; value = 629 a.u.
Strand = GAAGTTTTACCCTTCCATGTGGGTCAATTGACTTAGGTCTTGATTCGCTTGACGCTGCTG; value = 551 a.u.
Strand = GAACATCATCATTTAATCATGATGATAATATTGTAGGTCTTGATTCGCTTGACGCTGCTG; value = 561 a.u.
Strand = GAAAGAAGCAATGGTGGTGTCTGTTCATTGCGATAGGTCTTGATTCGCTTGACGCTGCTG; value = 522 a.u.
Strand = GAATATTCGGATGTGCATATCACGTTCGGATCTTAGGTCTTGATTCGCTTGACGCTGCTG; value = 846 a.u.
Strand = CTAACGGATATACGATATGTGACCAGCCGGCAATTCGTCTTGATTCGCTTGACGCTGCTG; value = 551 a.u.

Block 3 — technique: RNA Bind-n-Seq; molecule type: RNA; sample: in vitro; concentration: 20 nM; setting: 6-mer, flanks averaged, single round; added: 150 mM LiCl; reference: input library; reading: higher = stronger binding; endpoint: 6-mer enrichment (R)
Target: TAR DNA-binding protein 43, full length, His tag (TARDBP, Homo sapiens, UniProt Q13148, residues 1-414)
Strand = UAGACU; value = 0.878
Strand = UUGACC; value = 0.971
Strand = CUACGC; value = 0.836
Strand = CAAAAA; value = 0.837
Strand = GUCGGA; value = 1.16
Strand = ACAUGC; value = 0.866
Strand = AGCUGA; value = 0.864
Strand = UAGAAA; value = 0.857

Block 4 — concentration: 1 µM; endpoint: remaining binding
SMILES: CC(=O)c1c(NS(C)(=O)=O)c2cc(-c3ccc(Cl)cc3)c(-c3ccc(Cl)cc3Cl)nc2n(C)c1=O
target = Protein kinase C theta type (PRKCQ, Homo sapiens, UniProt Q04759); assay = cell-free assay, competition with immobilised ligand; value = 100%
target = Serine/threonine-protein kinase TBK1 (TBK1, Homo sapiens, UniProt Q9UHD2); assay = cell-free assay, competition with immobilised ligand; value = 92%
target = Serine/threonine-protein kinase D2 (PRKD2, Homo sapiens, UniProt Q9BZL6); assay = cell-free assay, competition with immobilised ligand; value = 88%
target = Receptor-type tyrosine-protein kinase FLT3 (FLT3, Homo sapiens, UniProt P36888, F691L/ITD); assay = cell-free assay, competition with immobilised ligand; value = 94%
target = STE20-like serine/threonine-protein kinase (SLK, Homo sapiens, UniProt Q9H2G2); assay = cell-free assay, competition with immobilised ligand; value = 100%
target = Calcium/calmodulin-dependent protein kinase type 1D (CAMK1D, Homo sapiens, UniProt Q8IU85); assay = cell-free assay, competition with immobilised ligand; value = 100%
target = Tyrosine-protein kinase ABL1, non-phosphorylated (ABL1, Homo sapiens, UniProt P00519, F317I); assay = binding, competition with immobilised ligand; value = 76%
target = Testis-specific serine/threonine-protein kinase 3 (TSSK3, Homo sapiens, UniProt Q96PN8); assay = cell-free assay, competition with immobilised ligand; value = 100%
target = Tyrosine-protein kinase ABL1, non-phosphorylated (ABL1, Homo sapiens, UniProt P00519, Q252H); assay = cell-free assay, competition with immobilised ligand; value = 100%
target = Dual specificity mitogen-activated protein kinase kinase 5 (MAP2K5, Homo sapiens, UniProt Q13163); assay = cell-free assay, competition with immobilised ligand; value = 80%
target = Serine/threonine-protein kinase MARK2 (MARK2, Homo sapiens, UniProt Q7KZI7); assay = cell-free assay, competition with immobilised ligand; value = 100%
target = Dual specificity protein kinase CLK3 (CLK3, Homo sapiens, UniProt P49761); assay = cell-free assay, competition with immobilised ligand; value = 92%
target = Microtubule-associated serine/threonine-protein kinase 1 (MAST1, Homo sapiens, UniProt Q9Y2H9); assay = cell-free assay, competition with immobilised ligand; value = 100%
target = Ephrin type-B receptor 4 (EPHB4, Homo sapiens, UniProt P54760); assay = cell-free assay, competition with immobilised ligand; value = 92%
target = Serine/threonine-protein kinase Nek2 (NEK2, Homo sapiens, UniProt P51955); assay = cell-free assay, competition with immobilised ligand; value = 100%
target = Serine/threonine-protein kinase MRCK gamma (CDC42BPG, Homo sapiens, UniProt Q6DT37); assay = competition binding; value = 100%
target = Casein kinase I isoform gamma-3 (CSNK1G3, Homo sapiens, UniProt Q9Y6M4); assay = cell-free assay, competition with immobilised ligand; value = 100%
target = Testis-specific serine/threonine-protein kinase 1 (TSSK1B, Homo sapiens, UniProt Q9BXA7); assay = cell-free assay, competition with immobilised ligand; value = 100%

Repeated from above (block 2):
Strand = GAACATCATCATTTAATCATGATGATAATATTGTAGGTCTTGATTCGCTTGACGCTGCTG; value = 561 a.u.
Strand = GAACCGCGGTCGTGCTGCGTGATCAGCTACATGTAGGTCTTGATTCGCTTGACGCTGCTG; value = 1090 a.u.
Strand = GAAAGAAGCAATGGTGGTGTCTGTTCATTGCGATAGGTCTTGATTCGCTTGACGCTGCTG; value = 522 a.u.
